Published values collected from several papers.
Lines come from different studies, so protocols differ.
Target: Cyclin-dependent kinase-like 2 (CDKL2, Homo sapiens, UniProt Q92772)

CNC(=O)C[C@H](Cc1ccc(C#N)cc1)NC(=O)c1cc(-c2ccc(CN[C@H](C)c3ccc(C)cc3)o2)ccc1Cl — activity vs control (enzyme activity, inhibitor; 1 µM): 99%
CNC(=O)C1CCN(c2cc(C)c(F)cc2NC(=O)c2ccc(-c3cc(O)ccc3C)c(C)c2)CC1 — remaining binding (binding, competition with immobilised ligand; 1 µM): 97%
COc1cc(Nc2nc(C)cc(-c3cnn4nc(OC)ccc34)n2)cc(C(F)(F)F)c1 — remaining activity (inhibitor; 1 µM; reference: control): 100%
CN1CC[C@@H](COc2cnc(C#N)cc2-c2ccn3nc(NC(=O)C4CC4)cc3c2)C1 — inhibition (enzyme activity, inhibitor; 1 µM): 9%
O=C(NCC1CCOCC1)c1n[nH]cc1NC(=O)c1c(F)cccc1F — remaining binding (scanMAX; 1 µM; reference: control): 77%
Cc1ccc(-c2c(/C=C(\C#N)C(=O)NC(C)C)n(CCCO)c3ncnc(N)c23)cc1 — remaining binding (cell-free assay, competition with immobilised ligand; 1 µM): 97%
CNC1C[S+]2CC[S+]3CC[S+](C1)[Ru-4]321([N]=C=S)[n]2c3ccc(OC)cc3c3c4c(c5cc(F)c[n+]1c5c32)C(=O)NC4=O (stereo not shown) — remaining binding (KinomeScan; 0.1 µM; reference: untreated): 92%
COc1cc(Nc2nccc(-c3cnn4nc(OC)ccc34)n2)cc(C(F)(F)F)c1 — remaining binding (binding, competition with immobilised ligand; 1 µM): 84%
COc1c(Cl)cccc1Nc1c(-c2ccncc2C#C[C@@]2(C)CCCN2C(=O)/C=C/CN(C)C)[nH]c2c1C(=O)NCC2 — remaining binding (binding, competition with immobilised ligand; 3 µM): 100%
O=C(Cc1ccc(OCc2ccccc2)cc1)NC1(C(=O)O)CCN(C(=O)c2ccc(-c3cccc(Cl)c3)cc2)CC1 — activity vs control (enzyme activity, inhibitor; 10 µM): 136%
C=CC(=O)N1CCCC(n2c(=O)c3ncccc3n(Cc3ccc(Oc4ccccc4)cc3)c2=O)C1 (stereo not shown) — remaining binding (cell-free assay, competition with immobilised ligand; 1 µM): 98%
C=CC(=O)N1CCc2ccc(-n3c(=O)ccc4cnc5ccc(-c6cnn(C)c6)cc5c43)cc21 — remaining binding (KINOMEscan; 1 µM; reference: DMSO control): 100%
CC(C)=CC1OC(C)(C)C2C=C3C(=O)C(Cl)=CC(O)C3C3C(O)C4OC4C(=O)C132 (stereo not shown) — remaining binding (cell-free assay, competition with immobilised ligand; 10 µM): 100%
Cc1cnc2nc1Nc1cccc(c1)COC/C=C/COCc1cc(ccc1OCCN1CCOCC1)N2 — remaining binding (binding; 0.1 µM): 95%
Nc1ncc2c(n1)-c1c([nH]c3ccc(C4=CCOCC4)cc13)CCC2 — remaining binding (binding, competition with immobilised ligand; 1 µM): 97%
CCN1CCN(Cc2ccc(C(=O)Nc3ccc(C)c(NCc4cnc5[nH]ccc5c4OC)c3)cc2C(F)(F)F)CC1 — remaining binding (binding, competition with immobilised ligand; 1 µM): 2%

A few entries again:
COc1cc(Nc2nccc(-c3cnn4nc(OC)ccc34)n2)cc(C(F)(F)F)c1 — remaining binding (binding, competition with immobilised ligand; 1 µM): 84%
COc1c(Cl)cccc1Nc1c(-c2ccncc2C#C[C@@]2(C)CCCN2C(=O)/C=C/CN(C)C)[nH]c2c1C(=O)NCC2 — remaining binding (binding, competition with immobilised ligand; 3 µM): 100%
O=C(Cc1ccc(OCc2ccccc2)cc1)NC1(C(=O)O)CCN(C(=O)c2ccc(-c3cccc(Cl)c3)cc2)CC1 — activity vs control (enzyme activity, inhibitor; 10 µM): 136%
